Published values from different studies.
Numbered parts are unrelated; each lists some results of a single study.

Sample 1 — observed: enzyme activity; action: inhibitor; tested at: 10 µM
Target: Calcium/calmodulin-dependent protein kinase type II subunit alpha (CAMK2A, Homo sapiens, UniProt Q9UQM7)
UniProt Q9UQM7, sequence (whole entry, looked up): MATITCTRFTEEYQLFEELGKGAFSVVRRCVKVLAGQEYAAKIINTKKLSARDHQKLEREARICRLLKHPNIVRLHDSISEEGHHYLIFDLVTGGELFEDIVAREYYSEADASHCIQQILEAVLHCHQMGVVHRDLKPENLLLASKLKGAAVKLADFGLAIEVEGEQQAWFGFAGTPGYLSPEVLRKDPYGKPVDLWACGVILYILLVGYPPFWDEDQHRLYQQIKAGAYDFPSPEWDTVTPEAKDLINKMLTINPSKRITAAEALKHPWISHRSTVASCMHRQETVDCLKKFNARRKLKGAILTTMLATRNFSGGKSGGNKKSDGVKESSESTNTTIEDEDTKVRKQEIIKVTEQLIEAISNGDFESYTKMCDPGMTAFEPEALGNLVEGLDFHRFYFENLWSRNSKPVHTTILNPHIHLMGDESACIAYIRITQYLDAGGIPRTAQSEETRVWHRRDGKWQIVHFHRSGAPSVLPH
SMILES	inhibition [%]
O=c1ccc2ccc(O)cc2o1	-33
Cc1ccccc1C(=O)O	-27
Nc1nc2c(c(=O)[nH]1)N(C=O)C(CNc1ccc(C(=O)N[C@@H](CCC(=O)O)C(=O)O)cc1)CN2 (some centres unmarked)	-3
CCC/C=C1\OC(=O)C2=C1CC[C@H](O)[C@H]2O	44
C[C@@H]1OC(O)[C@@H](O)[C@H](O)[C@@H]1O (single isomer, unassigned; (-))	-34
CN1CCN(CC/C=C2/c3ccccc3Sc3ccc(S(=O)(=O)N(C)C)cc32)CC1	2
CCCc1nc(C(C)(C)O)c(C(=O)O)n1Cc1ccc(-c2ccccc2-c2nnn[nH]2)cc1	6
COc1ccc(CNc2nc(N3CCC[C@H]3CO)ncc2C(=O)NCc2ncccn2)cc1Cl	1
C=C(CCC=C(C)C)[C@H]1CC[C@]2(C)[C@@H]1[C@H](O)C[C@@H]1[C@@]3(C)C[C@@H](O)[C@H](O[C@@H]4O[C@H](CO)[C@@H](O)[C@H](O)[C@H]4O[C@@H]4O[C@H](CO)[C@@H](O)[C@H](O)[C@H]4O)C(C)(C)[C@@H]3CC[C@]12C	13
O=C(O)C(=O)Cc1ccc(O)cc1	-20

Sample 2 — organism: Sarcocystis neurona; observed: parasite growth; tested at: 10 µM; time: 96 h; setting: second screen; baseline: untreated
Structure (SMILES)	log2 fold change
C[C@H]1O[C@H](O[C@H]2[C@H](O)[C@@H](O)[C@@H](O[C@H]3[C@H](O)[C@@H](O)C(O)O[C@@H]3CO)O[C@@H]2CO)[C@H](O)[C@@H](O)[C@@H]1N[C@H]1C=C(CO)[C@@H](O)[C@H](O)[C@H]1O (some centres unmarked)	0.32
CCCCC(=O)O[C@]1(C(=O)CO)CC[C@H]2[C@@H]3CCC4=CC(=O)CC[C@]4(C)[C@H]3[C@@H](O)C[C@@]21C	0.23
Cc1c(O)c(=O)ccn1C	0.47
CC(C)(S)[C@@H](N)C(=O)O	0.23
CCCCC1=NC2(CCCC2)C(=O)N1Cc1ccc(-c2ccccc2-c2nnn[nH]2)cc1	0.17
COc1ccccc1OCCNCC(O)COc1cccc2[nH]c3ccccc3c12 (centres unmarked)	-0.28
OC(CCN1CCCC1)(c1ccccc1)C1CCCCC1 (centres unmarked)	0.0456
C[C@H](CCC(=O)O)[C@H]1CC[C@H]2[C@@H]3[C@@H](O)C[C@@H]4C[C@H](O)CC[C@]4(C)[C@H]3CC[C@]12C	0.26
CCCN1CCCC[C@H]1C(=O)Nc1c(C)cccc1C	0.58
CC(C)C(=O)Nc1ccc([N+](=O)[O-])c(C(F)(F)F)c1	0.47
COc1ccc(OC)c(C(O)CNC(=O)CN)c1 (centres unmarked)	0.23
Cc1ncc([N+](=O)[O-])n1CC(C)O (centres unmarked)	0.3

Sample 3 — cell line: mouse MPNST tumor cells; method: high-content immunofluorescence imaging; refers to: nuclear SOX9; tested at: 10 µM; time: 12 h; setting: mean of 2 replicates; baseline: DMSO control; reading: higher = more nuclear SOX9
Compound	nuclear SOX9 intensity
Nc1ccc(S(=O)(=O)NC(=O)c2ccccc2)cc1	89.8 % of DMSO
COc1c(C)c2c(c(O)c1C/C=C(\C)CCC(=O)OCCN1CCOCC1)C(=O)OC2	98.3 % of DMSO
O=C(O)c1ccc(N2N=C(Cc3ccccc3)C(=Cc3ccc(-c4ccccc4F)o3)C2=O)cc1	90.5 % of DMSO
Cc1cc(=O)n(C)c2cc(N3C(=O)CC[C@@H](NS(=O)(=O)CC(C)C)[C@@H]3c3ccc(Cl)cc3)ccc12	111 % of DMSO
COC(=O)[C@H]1[C@H]2C[C@H]3c4[nH]c5ccccc5c4CCN3C[C@H]2CC[C@@H]1O	95.3 % of DMSO
O=C(Cc1ccccc1)Nc1nc2ccc(Cl)cc2c2nc(-c3ccco3)nn12	104 % of DMSO
CC(=O)NCCNc1cc(Cl)nn2c(-c3cccc(S(=O)(=O)N(C)C)c3)c(C)nc12	204 % of DMSO
COc1ccc2cc(OCC3(C(=O)O)CN(C(=O)c4ccc(F)cc4)C3)ccc2c1	89.7 % of DMSO
CSc1nc(-c2ccnc(NC(C)c3ccccc3)c2)c(-c2ccc(F)cc2)[nH]1 (centres unmarked)	152 % of DMSO

Further values, each from its own experiment
SMILES	cell line	tested at	time	baseline	endpoint	value
COc1cc(Nc2ccnc3ccc(Br)cc23)cc(OC)c1OC	sample BA colorectal tumour organoid	1 µM	–	DMSO	viability	30.5%
Cn1cc(-c2ccc3occ(-c4ccccc4-c4ccccc4)c3n2)cn1	sample BA colorectal tumour organoid	1 µM	–	DMSO	viability	115%
CCN(CC)S(=O)(=O)Nc1cccc(-c2ccc3c(NC(=O)C4CC4)n[nH]c3c2)c1	sample BA colorectal tumour organoid	1 µM	–	DMSO	viability	56.3%
CN(C)CC#Cc1ccc(OCCCc2sc(N3CCc4cccc(C(=O)Nc5nc6ccccc6s5)c4C3)nc2C(=O)O)c(F)c1	colorectal cancer organoids	–	4 days	–	IC50	0.02 to 0.11 µM

For quick reference, copied from above (sample 3):
Compound	nuclear SOX9 intensity
O=C(O)c1ccc(N2N=C(Cc3ccccc3)C(=Cc3ccc(-c4ccccc4F)o3)C2=O)cc1	90.5 % of DMSO
Cc1cc(=O)n(C)c2cc(N3C(=O)CC[C@@H](NS(=O)(=O)CC(C)C)[C@@H]3c3ccc(Cl)cc3)ccc12	111 % of DMSO
